Assay results of several laboratories.
Protocols differ between the studies behind these lines. Numbers after ± are the reported error.
Action: agonist
CNR1 F170A: Cannabinoid receptor 1 (CNR1, Homo sapiens, UniProt P21554, F170A)
UniProt P21554, sequence (whole entry, unmodified, looked up): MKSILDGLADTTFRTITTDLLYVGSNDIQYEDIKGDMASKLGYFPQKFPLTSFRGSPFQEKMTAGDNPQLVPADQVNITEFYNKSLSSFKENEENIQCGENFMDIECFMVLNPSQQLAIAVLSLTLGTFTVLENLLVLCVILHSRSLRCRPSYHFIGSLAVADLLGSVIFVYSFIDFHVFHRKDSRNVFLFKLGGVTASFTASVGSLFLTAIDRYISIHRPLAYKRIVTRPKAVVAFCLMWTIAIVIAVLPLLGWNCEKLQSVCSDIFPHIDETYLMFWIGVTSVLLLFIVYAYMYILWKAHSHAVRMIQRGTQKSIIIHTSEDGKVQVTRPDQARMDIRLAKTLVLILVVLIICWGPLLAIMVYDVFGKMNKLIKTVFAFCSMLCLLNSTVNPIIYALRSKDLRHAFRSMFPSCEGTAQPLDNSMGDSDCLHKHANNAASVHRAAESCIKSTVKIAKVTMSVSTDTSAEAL
CNR1: Cannabinoid receptor 1 (CNR1, Homo sapiens, UniProt P21554)

SMILES | target | effect on | method | cell line | EC50 [nM]
CCCCCn1cc(C(=O)c2cccc3ccccc23)c2ccccc21 | CNR1 F170A | G protein activation | BRET |  | 1550
COC(=O)[C@@H](NC(=O)c1nn(Cc2ccc(F)cc2)c2cc(OCCCCNC(N)=O)ccc12)C(C)(C)C | CNR1 | β-arrestin recruitment |  |  | 4.2
CCCCCn1cc(C(=O)c2ccc3ccccc3c2)c2ccccc21 | CNR1 | GαoA activation | BRET |  | 166
CCCCCn1ccc(C(=O)NC(C)(C)c2ccccc2Cl)n1 | CNR1 | calcium signal |  |  | 23.2
COc1ccc(C(C[N+](=O)[O-])c2c(-c3ccccc3)[nH]c3ccccc23)cc1OC (stereo not drawn) | CNR1 | G protein activation | BRET |  | 3300
CCCCCn1cc(C(=O)c2cccc3c2CC(C)(C)C3)c2ccccc21 | CNR1 F170A | cAMP | BRET |  | 219
CCCCCn1ccc(C(=O)N[C@H](C(N)=O)C(C)C)n1 | CNR1 | calcium signal |  |  | 4200
CCOC(=O)C(CC)(CC)NC(=O)c1ccc(C2CC2)c(Cc2ccc(F)cc2)n1 | CNR1 | cAMP |  |  | 4.4
O=[N+]([O-])CC(c1ccco1)c1c(-c2ccccc2)[nH]c2ccccc12 (stereo not drawn) | Cannabinoid receptor 1, with Gz (CNR1, Homo sapiens, UniProt P21554) | Gz dissociation | BRET | HEK293 | 370 ± 40
CCCCCn1ccc(C(=O)N[C@@H](C)c2ccccc2)n1 | CNR1 | calcium signal |  |  | 1250
Cc1ccc2c(C(C[N+](=O)[O-])c3cccs3)c(-c3ccccc3)[nH]c2c1 (stereo not drawn) | CNR1 (Homo sapiens, UniProt P21554, V249A) | G protein activation | BRET |  | 140
CC(=O)Nc1ccc(C(C)(C)NC(=O)c2ccn(Cc3ccc(F)cc3)n2)c(Cl)c1 | CNR1 | calcium signal |  |  | 481

For quick reference, copied from above:
SMILES | target | effect on | method | cell line | EC50 [nM]
CCCCCn1cc(C(=O)c2ccc3ccccc3c2)c2ccccc21 | CNR1 | GαoA activation | BRET |  | 166
CCCCCn1ccc(C(=O)NC(C)(C)c2ccccc2Cl)n1 | CNR1 | calcium signal |  |  | 23.2
